Measured values pooled from the literature.
Compare with care: the assays were run in different laboratories. ± gives the spread as reported.
Organism: Trypanosoma cruzi

SMILES	test	system	setting	endpoint	value
CCCCC(F)(P(=O)(O)O)P(=O)(O)O		Vero cells, intracellular amastigotes	day 3 post-infection	IC50	> 10 µM
O=C(Cn1ccnc1[N+](=O)[O-])c1ccc(-c2ccccc2)cc1	parasite growth	Tulahuen C4 amastigotes		IC50	4 to 60 µM
C=C1C(=O)O[C@@H]2[C@H]1CC[C@H](C)[C@@]1(O)C=CC(=O)[C@@]21C	cell growth, [3H]thymidine uptake	RA strain, epimastigotes	72 h	IC50	5.8 µM
CCC(F)(P(=O)(O)O)P(=O)(O)O		Vero cells, intracellular amastigotes	day 3 post-infection	IC50	> 10 µM
CCCCCCCCCCSCC(P(=O)(O)O)P(=O)(O)O	intracellular amastigote growth	Vero	72 h	IC50	22.4 µM
CC[C@@]1(O)C(=O)OCc2c1cc1n(c2=O)Cc2cc3ccccc3nc2-1	intracellular amastigote growth	3T3 fibroblasts, Tulahuen	48 h, re-sourced solid sample	IC50	0.09 ± 0.02 µM
O=P(O)(O)C(O)(Cc1cccnc1)P(=O)(O)O	parasite growth	Vero	72 h, intracellular, amastigote	IC50	55 µM
CCCCCCCC[S+](C)CC(P(=O)(O)O)P(=O)(O)O (centres unmarked)	intracellular amastigote growth	Vero	72 h	IC50	32 µM
O=C(Cn1ccnc1[N+](=O)[O-])NCc1ccccc1		Y, male Swiss mouse	oral, 100 mg/kg/day, 5 to 9 dpi, followed to 56 dpi	survival	80%
C=C1C(=O)O[C@@H]2C[C@@H](C)[C@@H]3C=CC(=O)[C@@]3(C)[C@@H](O)[C@H]12	cell growth, [3H]thymidine uptake	RA strain, epimastigotes	72 h	IC50	1.11 µM
CCCC(F)(P(=O)(O)O)P(=O)(O)O		Vero cells, intracellular amastigotes	day 3 post-infection	IC50	> 10 µM
Clc1cc(Br)ccc1-c1ccc(CNCCN2CCOCC2)o1	parasite growth	C2C12, CA-I/72	72 h	EC50	< 1 µM
CCCCCC(F)(P(=O)(O)O)P(=O)(O)O		Vero cells, intracellular amastigotes	day 3 post-infection	IC50	> 10 µM
Nc1nc(N)nc(Nc2ccc([As]3SCC(CO)S3)cc2)n1 (centres unmarked)	parasite growth, resazurin		48 h, epimastigote	IC50	0.01 µM

For quick reference, copied from above:
SMILES	test	system	setting	endpoint	value
CCCCCCCC[S+](C)CC(P(=O)(O)O)P(=O)(O)O (centres unmarked)	intracellular amastigote growth	Vero	72 h	IC50	32 µM
CCCC(F)(P(=O)(O)O)P(=O)(O)O		Vero cells, intracellular amastigotes	day 3 post-infection	IC50	> 10 µM
